Published values from different studies.
Each line is one published result; not all experiments were run side by side. ± marks the error that the study gave.

CC(C)[C@H](NC(=O)CNC(=O)[C@H](CCC(N)=O)NC(=O)[C@H](C)N)C(=O)O  unlikely related or unrelated adverse events (human; 10 mg/kg thrice daily, 3 days): 16.7%
C[C@@H]1CC[C@H]2[C@@H](C)CO[C@@H]3O[C@@]4(C)CC[C@@H]1[C@]32OO4  measured concentration (refers to: compound; rat, plasma; 800 ng/mL spiked, three freeze/thaw cycles): 775 ± 42.8 ng/mL
COC(=O)C[C@](O)(CCCC(C)(C)OC(C)=O)C(=O)O[C@@H]1C(OC)=C[C@]23CCCN2CCc2cc4c(cc2[C@H]13)OCO4  concentration (CD1 mouse, esophagus; subcutaneous, 1 mg/kg, 2 h): 28.4 ng/mL
CC[C@@H]1C[C@]1(NC(=O)[C@@H]1C[C@@]2(CN1C(=O)[C@@H](NC(=O)[C@@H](NC(=O)[C@@H]1CCCCN1C(C)C)C1CCCCC1)C(C)(C)C)C(C)(C)C21CCC1)C(=O)NS(=O)(=O)N1CCCC1  subjects with adverse event (refers to: nausea; human fed; oral, 100 mg single dose): 0%
CC(C)C[C@@H](N)C(=O)NCC(=O)N[C@H](C)C(=O)N[C@H](CO)C(=O)N[C@H](Cc1c[nH]c2ccccc12)C(=O)N[C@H](Cc1c[nH]cn1)C(=O)N[C@H](CCCNC(=N)N)C(=O)N1CCC[C@@H]1C(=O)N[C@H](CC(=O)O)C(=O)N[C@H](CCCCN)C(=O)N[C@H](CS)C(=O)N[C@H](CS)C(=O)N[C@H](CC(C)C)C(=O)NCC(=O)N[C@H](Cc1ccc(O)cc1)C(=O)N[C@H](CCC(N)=O)C(=O)N[C@H](CCCCN)C(=O)N[C@H](CCCNC(=N)N)C(=O)N1CCC[C@@H]1C(=O)N[C@H](CC(C)C)C(=O)N1CCC[C@@H]1C(N)=O  measured concentration (LC-MS/MS; rat plasma extract; 500 ng/mL, 4 h, 8 °C, autosampler storage): 486 ± 4.6 ng/mL
CC[C@@H](C)[C@H](NC(=O)[C@H](C)NC(=O)[C@H](CCCCN)NC(=O)[C@H](CC(C)C)NC(=O)[C@H](C)NC(=O)[C@@H](NC(=O)[C@H](Cc1c[nH]cn1)NC(=O)[C@H](CC(C)C)NC(=O)[C@@H](NC(=O)[C@@H](NC(=O)[C@H](CCCCN)NC(=O)[C@H](CCCCN)NC(=O)[C@H](C)NC(=O)[C@H](CO)NC(=O)[C@H](CCCCN)NC(=O)[C@H](Cc1ccccc1)NC(=O)[C@@H](NC(=O)[C@H](CCCCN)NC(=O)[C@H](CC(C)C)NC(=O)[C@H](Cc1ccccc1)NC(=O)[C@H](CO)NC(=O)[C@H](CCCCN)NC(=O)[C@H](Cc1c[nH]c2ccccc12)NC(=O)[C@H](CCCCN)NC(C)=O)[C@@H](C)O)[C@@H](C)O)C(C)C)[C@@H](C)O)C(=O)N[C@@H](CO)C(=O)N[C@@H](CO)C(N)=O  mean residue ellipticity (circular dichroism at 222 nm; buffer with 50% TFE; 75 µM, 65 °C): -20400 deg cm² dmol⁻¹
O=C(O)[c-]1cccc1.O=C(Oc1ccc(-n2cccc2)cc1)[c-]1cccc1.[Fe+2]  ΔE (cyclic voltammetry; acetonitrile; baseline: Ag/AgCl): 126 mV
C[C@H](O)[C@@H](NC(=O)[C@H]1CCCN1C(=O)[C@@H](CCCCN)NC(=O)[C@@H](CO)NC(=O)[C@@H](Cc1ccc(O)cc1)NC(=O)[C@@H](CC(N)=O)NC(=O)CCOCCOCCOCCNC(=O)CN1CCN(CC(=O)O)CCN(CC(=O)O)CCN(CC(=O)O)CC1)C(=O)N[C@H](CC(=O)O)C(=O)N[C@H](CCCNC(=N)N)C(=O)N[C@H](CCC(N)=O)C(=O)N[C@H](Cc1ccc(O)cc1)C(=O)N[C@H](Cc1c[nH]cn1)C(=O)N[C@H](Cc1ccccc1)C(N)=O [gallium-68 labelled]  clearance rate (U87MG xenograft BALB/c nude mice, kidney; 5 to 120 min): 0.12 %ID/g/min
COc1cc(-c2cncc(-c3ccc(N4CCNCC4)cc3)c2C)cc(OC)c1O[11CH3]  peak SUV (dynamic PET; Sprague-Dawley rats male, whole brain; intravenous, 16 to 23 MBq): 0.6
O=C(N=P12CN3CN(CN(C3)C1)C2)c1ccccn1.[Cl][Au+][Cl].[O-][Cl+3]([O-])([O-])[O-]  decomposition time (NMR; DMSO:water 50:50): 30 min

For quick reference, copied from above:
COc1cc(-c2cncc(-c3ccc(N4CCNCC4)cc3)c2C)cc(OC)c1O[11CH3]  peak SUV (dynamic PET; Sprague-Dawley rats male, whole brain; intravenous, 16 to 23 MBq): 0.6
